Experimental data collected from several papers.
Numbered parts are unrelated; each lists some results of a single study. Substitutions count along the parent as printed.
UniProt Q9C5X0, sequence (whole entry, looked up): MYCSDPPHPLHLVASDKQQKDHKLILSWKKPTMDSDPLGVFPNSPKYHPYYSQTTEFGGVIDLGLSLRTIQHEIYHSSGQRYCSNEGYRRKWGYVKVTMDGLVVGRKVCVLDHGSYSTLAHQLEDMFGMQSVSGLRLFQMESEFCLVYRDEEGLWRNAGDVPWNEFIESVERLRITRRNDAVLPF
UniProt P93024, sequence (whole entry, looked up): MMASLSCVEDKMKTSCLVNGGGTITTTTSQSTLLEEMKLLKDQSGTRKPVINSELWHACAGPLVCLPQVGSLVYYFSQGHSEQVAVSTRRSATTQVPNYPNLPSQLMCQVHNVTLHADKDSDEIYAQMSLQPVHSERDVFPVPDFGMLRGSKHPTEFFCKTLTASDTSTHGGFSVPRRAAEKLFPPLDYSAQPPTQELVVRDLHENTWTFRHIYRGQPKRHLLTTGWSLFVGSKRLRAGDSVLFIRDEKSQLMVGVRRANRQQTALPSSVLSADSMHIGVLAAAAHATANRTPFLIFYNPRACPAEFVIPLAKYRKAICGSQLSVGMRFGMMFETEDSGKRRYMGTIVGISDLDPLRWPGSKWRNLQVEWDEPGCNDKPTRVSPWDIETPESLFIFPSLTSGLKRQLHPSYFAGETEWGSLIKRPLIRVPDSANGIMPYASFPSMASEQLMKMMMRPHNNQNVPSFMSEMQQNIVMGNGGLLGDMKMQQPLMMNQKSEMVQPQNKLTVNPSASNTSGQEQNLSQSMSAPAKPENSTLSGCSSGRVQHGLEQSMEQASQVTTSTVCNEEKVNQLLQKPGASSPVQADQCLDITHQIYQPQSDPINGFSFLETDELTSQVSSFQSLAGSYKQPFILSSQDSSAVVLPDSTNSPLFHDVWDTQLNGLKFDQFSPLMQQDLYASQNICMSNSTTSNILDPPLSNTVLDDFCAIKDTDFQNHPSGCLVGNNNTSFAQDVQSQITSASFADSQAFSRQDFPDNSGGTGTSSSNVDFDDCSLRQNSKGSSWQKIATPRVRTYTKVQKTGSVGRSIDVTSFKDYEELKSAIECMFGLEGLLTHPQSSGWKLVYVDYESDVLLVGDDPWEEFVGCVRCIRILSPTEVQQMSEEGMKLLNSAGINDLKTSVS
UniProt Q9ZTX9, sequence (whole entry, looked up): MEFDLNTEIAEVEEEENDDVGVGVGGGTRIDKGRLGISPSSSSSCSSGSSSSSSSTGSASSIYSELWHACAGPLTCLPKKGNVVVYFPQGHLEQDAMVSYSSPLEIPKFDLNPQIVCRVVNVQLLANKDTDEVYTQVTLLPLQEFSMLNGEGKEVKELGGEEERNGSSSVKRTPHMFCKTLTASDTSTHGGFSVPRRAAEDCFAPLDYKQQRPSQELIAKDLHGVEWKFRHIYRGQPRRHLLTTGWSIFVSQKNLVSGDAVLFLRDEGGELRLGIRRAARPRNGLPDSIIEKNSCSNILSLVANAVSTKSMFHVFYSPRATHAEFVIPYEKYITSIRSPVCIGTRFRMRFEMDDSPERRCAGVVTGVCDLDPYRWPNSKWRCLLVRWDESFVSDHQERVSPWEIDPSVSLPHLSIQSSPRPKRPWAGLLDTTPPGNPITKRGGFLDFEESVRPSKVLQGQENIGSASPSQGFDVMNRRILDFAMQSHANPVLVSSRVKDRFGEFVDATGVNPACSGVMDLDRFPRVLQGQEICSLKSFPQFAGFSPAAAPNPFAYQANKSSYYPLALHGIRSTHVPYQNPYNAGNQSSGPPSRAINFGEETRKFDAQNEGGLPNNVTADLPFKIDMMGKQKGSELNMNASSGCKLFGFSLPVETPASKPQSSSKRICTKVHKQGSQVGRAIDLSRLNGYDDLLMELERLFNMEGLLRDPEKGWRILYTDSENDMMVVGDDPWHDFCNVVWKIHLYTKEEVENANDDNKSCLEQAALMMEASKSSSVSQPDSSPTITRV
UniProt Q84WU6, sequence (whole entry, looked up): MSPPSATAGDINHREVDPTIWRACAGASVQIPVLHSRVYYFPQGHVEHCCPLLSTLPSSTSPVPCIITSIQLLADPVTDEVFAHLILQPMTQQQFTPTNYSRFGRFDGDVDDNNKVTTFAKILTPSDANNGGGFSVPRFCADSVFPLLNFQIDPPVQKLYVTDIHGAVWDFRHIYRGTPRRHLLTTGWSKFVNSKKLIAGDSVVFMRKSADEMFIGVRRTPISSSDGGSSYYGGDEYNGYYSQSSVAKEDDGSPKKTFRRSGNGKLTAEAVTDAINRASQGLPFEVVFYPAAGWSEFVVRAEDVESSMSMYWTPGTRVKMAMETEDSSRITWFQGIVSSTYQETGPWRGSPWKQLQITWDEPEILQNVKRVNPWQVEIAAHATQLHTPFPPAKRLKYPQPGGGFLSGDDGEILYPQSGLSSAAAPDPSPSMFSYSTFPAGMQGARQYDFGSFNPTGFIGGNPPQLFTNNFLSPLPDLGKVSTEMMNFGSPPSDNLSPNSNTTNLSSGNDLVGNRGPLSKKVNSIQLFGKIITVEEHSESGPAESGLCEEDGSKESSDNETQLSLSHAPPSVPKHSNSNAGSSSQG
UniProt Q9ZTX8, sequence (whole entry, looked up): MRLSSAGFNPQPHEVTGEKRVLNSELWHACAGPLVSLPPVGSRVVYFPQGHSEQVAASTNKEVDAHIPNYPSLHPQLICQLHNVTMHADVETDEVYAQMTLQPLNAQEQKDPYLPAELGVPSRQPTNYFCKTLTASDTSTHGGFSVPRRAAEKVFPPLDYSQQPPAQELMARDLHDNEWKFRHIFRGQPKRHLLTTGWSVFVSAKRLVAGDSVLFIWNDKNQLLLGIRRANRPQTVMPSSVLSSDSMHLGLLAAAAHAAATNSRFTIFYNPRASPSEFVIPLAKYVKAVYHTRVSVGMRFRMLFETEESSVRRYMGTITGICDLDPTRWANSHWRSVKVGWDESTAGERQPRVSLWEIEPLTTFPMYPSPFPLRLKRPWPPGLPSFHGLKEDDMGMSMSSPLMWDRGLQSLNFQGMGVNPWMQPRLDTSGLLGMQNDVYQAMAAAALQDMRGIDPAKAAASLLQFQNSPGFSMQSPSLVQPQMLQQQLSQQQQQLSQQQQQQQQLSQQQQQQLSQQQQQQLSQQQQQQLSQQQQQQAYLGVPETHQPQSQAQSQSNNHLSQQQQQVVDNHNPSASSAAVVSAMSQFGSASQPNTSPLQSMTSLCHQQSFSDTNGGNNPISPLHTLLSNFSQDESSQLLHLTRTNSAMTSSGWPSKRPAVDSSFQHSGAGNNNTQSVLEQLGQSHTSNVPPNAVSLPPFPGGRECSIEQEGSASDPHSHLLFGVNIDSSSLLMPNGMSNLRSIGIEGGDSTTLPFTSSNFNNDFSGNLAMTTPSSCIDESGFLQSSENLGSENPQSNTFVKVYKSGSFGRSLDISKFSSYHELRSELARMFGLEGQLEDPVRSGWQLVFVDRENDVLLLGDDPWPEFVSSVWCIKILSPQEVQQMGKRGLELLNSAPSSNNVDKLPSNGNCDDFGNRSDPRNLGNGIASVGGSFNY

Block 1
Molecule: B1 (IAA17)
Technique: two-hybrid
Reading: higher = firmer interaction
B1: IAA17 (Arabidopsis thaliana, UniProt P93830); chain MMGSVELNLRETELCLGLPGGDTVAPVTGNKRGFSETVDLKLNLNNEPANKEGSTTHDVVTFDSKEKSACPKDPAKPPAKAQVVGWPPVRSYRKNVMVSCQKSSGGPEAAAFVKVSMDGAPYLRKIDLRMYKSYDELSNALSNMFSSFTMGKHGGEEGMIDFMNERKLMDLVNSWDYVPSYEDKDGDWMLVGDVPWPMFVDTCKRLRLMKGSDAIGLAPRAMEKCKSRA
| partner | setting | how to read | positive tests |
| --- | --- | --- | --- |
| ARF17 (Arabidopsis thaliana, UniProt Q84WU6) | weak activation fusion | relative to: out of 4 tests | 0 |
| ARF4 660-788 (Arabidopsis thaliana, UniProt Q9ZTX9) |  | relative to: out of 4 tests | 2 |
| ARF6 790-935 (Arabidopsis thaliana, UniProt Q9ZTX8) |  | relative to: out of 4 tests | 3 |
| ARF5 788-902 (Arabidopsis thaliana, UniProt P93024) |  | relative to: out of 2 tests | 2 |
| IAA34 (Arabidopsis thaliana, UniProt Q9C5X0) |  | relative to: out of 4 tests | 4 |

Block 2
Target: Sal-like protein 4, full length isoform B (SALL4, Homo sapiens, UniProt Q9UJQ4-2, residues 1-616)
Technique: universal PBM
Form: double-stranded DNA, one strand shown
Sample: in vitro
Concentration: not given
Setting: 8-mer, flanks averaged, mean of replicates
Reading: higher = stronger binding
Construct (chain): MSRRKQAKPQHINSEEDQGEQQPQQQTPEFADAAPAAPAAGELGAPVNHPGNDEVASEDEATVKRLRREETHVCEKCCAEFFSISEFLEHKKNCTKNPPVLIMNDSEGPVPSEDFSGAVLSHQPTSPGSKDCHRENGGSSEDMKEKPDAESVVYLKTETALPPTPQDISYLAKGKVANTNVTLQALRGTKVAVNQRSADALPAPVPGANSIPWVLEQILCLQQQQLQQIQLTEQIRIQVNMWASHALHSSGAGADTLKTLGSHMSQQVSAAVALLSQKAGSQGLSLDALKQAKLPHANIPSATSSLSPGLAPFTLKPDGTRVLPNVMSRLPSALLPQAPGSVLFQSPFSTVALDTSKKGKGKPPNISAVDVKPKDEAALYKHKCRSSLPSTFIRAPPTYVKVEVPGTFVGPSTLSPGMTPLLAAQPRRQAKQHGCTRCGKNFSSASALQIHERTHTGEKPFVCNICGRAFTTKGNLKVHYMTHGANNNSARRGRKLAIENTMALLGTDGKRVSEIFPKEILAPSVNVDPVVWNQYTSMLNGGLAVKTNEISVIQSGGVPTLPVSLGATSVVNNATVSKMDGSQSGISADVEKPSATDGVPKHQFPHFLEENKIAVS
| Sequence | E-score |
| --- | --- |
| TACGTGGA | -0.0369 |
| ACGGCTCC | -0.134 |
| AGATTCTG | -0.0523 |
| CTGATACA | 0.0716 |
| GGTTTGAC | -0.0313 |
| ATGTGCCG | -0.0901 |
| CCCACCAA | -0.169 |
| ATAAGTGC | 0.153 |
| CCACACGA | -0.0659 |
| GCCGCGAA | -0.224 |
| CGGACCAC | -0.216 |
| CTCTCCAA | -0.0164 |
| GAGTGATA | 0.206 |
| AATCGATC | -0.129 |
| ACGTTGCT | 0.0448 |
| CATCTTAG | 0.0183 |
| ACCGCTAC | -0.208 |
| AGTAATCA | 0.0675 |
| AAGTCCCC | -0.159 |
| CAACTCAC | -0.0197 |
| GGTTCAAA | -0.0117 |

Block 3
Target: CCNE2, cyclin fold, Cln2 fusion (human)
Technique: yeast growth competition, sequencing
Sample: yeast
Setting: weak parent motif
Relative to: not given
Reading: higher = stronger binding
Parent: MASTL docking peptide (human); PMIAKNLMCELDE; partner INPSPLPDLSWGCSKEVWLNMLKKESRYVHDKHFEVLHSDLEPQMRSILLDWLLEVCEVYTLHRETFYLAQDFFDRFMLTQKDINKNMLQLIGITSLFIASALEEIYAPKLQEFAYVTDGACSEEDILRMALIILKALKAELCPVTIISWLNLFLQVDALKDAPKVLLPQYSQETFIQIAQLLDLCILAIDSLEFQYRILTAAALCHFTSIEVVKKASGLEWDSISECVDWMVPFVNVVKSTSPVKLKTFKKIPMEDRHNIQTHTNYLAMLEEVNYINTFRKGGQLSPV
| Change | normalised enrichment score |
| --- | --- |
| A4F | 0.102 |
| C9P | -0.0622 |
| L7V | -0.29 |
| C9W | -0.433 |
| M8G | -0.145 |
| I3E | 0.0596 |
| I3S | -0.483 |
| M2D | -0.0365 |
| L7K | 0.166 |
| L11M | -0.659 |
| L11C | -0.312 |
| L11F | -0.474 |
| N6E | -0.234 |
| A4P | 0.22 |
| M8Y | -0.337 |
| M2C | -0.366 |
| I3A | -0.0967 |
| M8L | -0.0146 |
| D12G | 0.0438 |
| A4Y | -0.252 |
| L11K | 0.0362 |
| E10P | 0.109 |
| M2W | 0.102 |
| L11T | -0.247 |
| M8I | -0.129 |

Block 4
Target: Centromere-binding protein 1, full length, N-terminal tag (CBF1, Saccharomyces cerevisiae, UniProt P17106, residues 1-351)
UniProt P17106, sequence (whole entry, looked up): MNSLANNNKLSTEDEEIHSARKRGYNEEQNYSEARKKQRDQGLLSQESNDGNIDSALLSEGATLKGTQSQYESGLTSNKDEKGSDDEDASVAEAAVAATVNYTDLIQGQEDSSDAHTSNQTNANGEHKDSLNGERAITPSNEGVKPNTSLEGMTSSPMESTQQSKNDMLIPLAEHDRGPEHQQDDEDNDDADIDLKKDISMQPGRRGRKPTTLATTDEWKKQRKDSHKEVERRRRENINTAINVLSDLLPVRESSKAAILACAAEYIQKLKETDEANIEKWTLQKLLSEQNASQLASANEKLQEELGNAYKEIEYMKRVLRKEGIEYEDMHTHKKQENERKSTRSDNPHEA
Technique: protein-binding microarray
Form: double-stranded DNA, one strand shown
Sample: in vitro
Concentration: 0.8 µM
Setting: whole 60-bp probe, no competitor
Reading: higher = stronger binding
| Sequence | fluorescence intensity |
| --- | --- |
| CTACCCGCAGAGCACGTGAGCAAAAAATCAATTTTCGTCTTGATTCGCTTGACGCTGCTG | 14400 a.u. |
| CTACATGTGAAAACGGTGATGATAGTAAAAAAATTCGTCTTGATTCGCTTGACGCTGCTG | 554 a.u. |
| CTAGTAATGGAAATTCACCTGCTTTGAATCGTTTTCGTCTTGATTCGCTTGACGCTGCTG | 515 a.u. |
| CCTAACTACTATAGACTCACCTTATAGCTTCGTACAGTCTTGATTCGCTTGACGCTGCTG | 479 a.u. |
| CTAGGTAGTAATGGTGATGAAATGTTGTTACTTTTCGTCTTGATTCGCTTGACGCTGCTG | 478 a.u. |
| CTAAGAAGAAACACGCACGTGTACCCAAAAATATTCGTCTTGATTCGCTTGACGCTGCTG | 4800 a.u. |
| CCTAACTACTATATGTACGTGATATAGCTTCGTACAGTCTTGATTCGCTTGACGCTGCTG | 654 a.u. |
| CTATTGGAAGAGAAACAGCTGATGATTCTGGCATTCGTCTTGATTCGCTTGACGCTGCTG | 581 a.u. |
| CTAAATTAACTTCATCATGATCATTAATTTCATTTCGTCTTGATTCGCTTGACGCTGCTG | 585 a.u. |
| GAACAGAGAAACGATCATGATGGGAAAGCGGGGTAGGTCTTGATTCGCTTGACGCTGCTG | 512 a.u. |
| GAATTTCAATCTTGCATCACCATTACCAGCACGTAGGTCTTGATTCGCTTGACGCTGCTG | 545 a.u. |
| GAAACCAATATATGTCATGAGAAGTGGCTTGTATAGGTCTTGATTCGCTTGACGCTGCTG | 537 a.u. |
| GAAACATTATCCTAAAACGTGGCGTTACTGACTTAGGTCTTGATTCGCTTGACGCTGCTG | 558 a.u. |
| GAAGCAGGGGAGAATGTGGTGACGGCGGAGCCGTAGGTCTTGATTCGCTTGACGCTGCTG | 453 a.u. |
| CTAAAACCATCACAAAATGTCACGTGCATGTTATTCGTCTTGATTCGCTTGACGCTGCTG | 19500 a.u. |
| CTAGTATTCGCACTTAGCGTGCTCGCAACACAATTCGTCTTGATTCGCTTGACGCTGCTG | 513 a.u. |
| GAATTAATTTTTGTTCACGAGTAAGTACTTCAGTAGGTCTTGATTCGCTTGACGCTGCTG | 799 a.u. |
| GAATCCTTCCGCACACACGCAATTAGCTGCCGATAGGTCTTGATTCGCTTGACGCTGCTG | 510 a.u. |
| GAAAGATGTATGGGTCTCATGAATAACGGCCCGTAGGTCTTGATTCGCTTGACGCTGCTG | 487 a.u. |
| CTAATCCTAGAAAAACACGTTTGCTCACTCGATTTCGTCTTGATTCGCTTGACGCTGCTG | 494 a.u. |
| CTAAGGTTCCTTCAGCATCAGAACAGATCACAATTCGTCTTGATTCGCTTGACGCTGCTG | 544 a.u. |
| CTATCGGTCTTGGGTCACGTGCGGCGACGCGGATTCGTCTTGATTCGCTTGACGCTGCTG | 22400 a.u. |
| CTACCTTTTGATTATCACGTTGAGTGTCGAAGATTCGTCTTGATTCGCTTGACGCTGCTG | 1010 a.u. |
| GAATTTTTTTTTTTCCTTGTGATTGTTTATTTATAGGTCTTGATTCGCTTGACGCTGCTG | 628 a.u. |

Block 5
Target: Histone acetyltransferase KAT6A, winged helix 1, GST fusion (KAT6A, Homo sapiens, UniProt Q92794, residues 1-85)
Technique: protein binding microarray
Form: double-stranded DNA, one strand shown
Sample: in vitro
Concentration: not given
Setting: 8-mer, flanks averaged, mean of 2 arrays, mostly near background
Relative to: not given
Reading: higher = stronger binding
Construct (chain): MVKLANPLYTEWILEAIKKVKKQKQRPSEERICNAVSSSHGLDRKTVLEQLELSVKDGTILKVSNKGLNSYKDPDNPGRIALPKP
| Sequence | E-score |
| --- | --- |
| GACTAGTA | 0.0016 |
| GAATCCCC | 0.0198 |
| GATTGACA | -0.107 |
| AGATTACC | 0.00991 |
| CGCAGCCC | 0.13 |
| CGACCACA | -0.117 |
| CGTTTGCC | 0.107 |
| ATAACACC | -0.0534 |
| TAAACACA | -0.214 |
| ACGATCTG | -0.187 |
| ATTTTGGG | -0.218 |
| AAATTTAG | -0.14 |
| TATGTGCA | -0.111 |
| CAAAAGGA | -0.175 |
| TCGTTAGA | -0.129 |
| GCATAGGA | -0.0526 |
| CTTGTTCA | -0.183 |
| AAGCTCTC | -0.136 |
| AGTACACG | 0.0256 |
| ACGTGACT | -0.108 |
| ACGAGCAT | -0.282 |
| TACGTACA | -0.0624 |
| TGGAACAA | -0.223 |
| AGACTTTC | -0.165 |
| TCTGGGCA | -0.228 |

Repeated from above (block 1):
| partner | setting | how to read | positive tests |
| --- | --- | --- | --- |
| ARF17 (Arabidopsis thaliana, UniProt Q84WU6) | weak activation fusion | relative to: out of 4 tests | 0 |
| ARF5 788-902 (Arabidopsis thaliana, UniProt P93024) |  | relative to: out of 2 tests | 2 |
| IAA34 (Arabidopsis thaliana, UniProt Q9C5X0) |  | relative to: out of 4 tests | 4 |
| ARF6 790-935 (Arabidopsis thaliana, UniProt Q9ZTX8) |  | relative to: out of 4 tests | 3 |
| ARF4 660-788 (Arabidopsis thaliana, UniProt Q9ZTX9) |  | relative to: out of 4 tests | 2 |
